# Assay results gathered from unrelated publications.
# Numbered parts are unrelated; each lists some results of a single study. Changes are numbered by the printed parent chain.

# Set 1
# Target: CCND1, cyclin fold, Cln2 fusion (human)
# Method: yeast growth competition, sequencing
# Medium: yeast
# Notes: weak parent motif
# Relative to: not given
# Direction: higher = stronger binding
# Starting sequence: AKAP12 docking peptide (human); GSPLKKLFTSTGL
Variant,normalised enrichment score
S2A,0.674
K5R F8L,0.554
G12A,0.0523
T9A,0.127
L13A,0.446
S10A,0.341
K6A,0.701

# Set 2
# Target: Ras GTPase-activating protein-binding protein 1, C-terminal RGG region (G3BP1, Homo sapiens, UniProt Q13283)
# Sequence of UniProt Q13283 (whole entry, looked up): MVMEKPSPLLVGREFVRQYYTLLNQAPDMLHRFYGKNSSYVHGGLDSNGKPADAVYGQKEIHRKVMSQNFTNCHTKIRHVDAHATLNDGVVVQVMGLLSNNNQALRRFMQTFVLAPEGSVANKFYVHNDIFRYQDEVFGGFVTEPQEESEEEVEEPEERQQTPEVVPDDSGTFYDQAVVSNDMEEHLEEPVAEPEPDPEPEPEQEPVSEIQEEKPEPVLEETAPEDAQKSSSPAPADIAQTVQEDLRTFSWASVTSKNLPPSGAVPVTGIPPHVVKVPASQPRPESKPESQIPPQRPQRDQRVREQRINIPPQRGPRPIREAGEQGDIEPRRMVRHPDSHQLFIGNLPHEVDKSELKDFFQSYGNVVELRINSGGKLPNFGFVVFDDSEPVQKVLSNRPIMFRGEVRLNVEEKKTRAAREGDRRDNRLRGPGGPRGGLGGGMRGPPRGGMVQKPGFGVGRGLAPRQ
# Method: RNA Bind-n-Seq
# Form: RNA
# Medium: in vitro
# Concentration: 1 µM
# Notes: whole 134-nt RNA, ends assumed
# Together with: 150 mM KCl
# Relative to: input library
# Direction: higher = stronger binding
# Shared flanks, not repeated: GGGAGUUCUACAGUCCGACGAUC … UGGAAUUCUCGGGUGUCAAGG
Sequence,log2 enrichment
UGUGCUACACAUCGUAUGUACCGAAUCGGGGUUUUUUUGGGGUUUUUUUGGUUUUUUUGGGGAAAGUAUUAUGUUACGCCGUUCGGAUCU,-1.06
CACAGACAACACGCACCCUCACAGACACAGAGGGAAGGGGUUGGGAUGGGGACAGGGUGCACAGCAGGGCGGGGUAGGACCCCAGCCCCU,0.125
UUUUUGAAUCAAUUUUUAAAACAUGCCAUUGUGUUUCAGGCUCGCGGGAUUGAUGUGCAACAAGUGUCUUUGGUUAUAAAUUAUGAUCUA,-0.545
CCUGUGCUACACAUCGUAUGUACCGAAUCGGCCCCCCGGGGCCCCCCGGGGCCCCCCGGGAAAGUAUUAUGUUACGCCGUUCGGAUCUGC,-2.34
UGGCCCUGGUGGCAUGCGGCGAGGAAGAGGUGGCCUCAUGGAUCGUGGUGGUCCCGGUGGAAUGUUCAGAGGUGGCCGUGGUGGAGACAG,1.89
UCCUGUGCUACACAUCGUAUGUACCGAAUCAAACCCCCCCAAACCCCCAAACCCCCAAAAAAGUAUUAUGUUACGCCGUUCGGAUCUGCA,-0.624
CGCAGACAACACGCACCCACACAGACACAGAGGGAAGGGGUUGGGAUGGGGACAGGGUGCACAGCAGGGCGGGGUAGGACCCCAGCCCCU,-0.0948
UAACUUUAGAGGAGGAUCUGAUGGAUAUGGCAGUGGACGUGGAUUUGGGGAUGGCUAUACUGGGUAUGGAGGAGGACCUGGAGGUGGCAA,-0.857
GUCCUGUGCUACACAUCGUAUGUACCGAAUCGGGGCCCCGGGGCCCCGGGGCCCCGGGGAAAGUAUUAUGUUACGCCGUUCGGAUCUGCA,-1.44
ACCAUGCAGGUGGGCAUCUAAAGGAAGUGGGGCAAGGGGGGGAUAGGGAGGGGGGUAACACUUUGGGAACAGGUGGUCCCAGGUCGUUUC,-1.17
UUGCAGAUGAGCUUAUGGGGGGCAAUCUUAAAAAGUCCACAGCAGAUGCAUCCGGCUCGAGGGGCCAUCAGCUUUGAAUAAAUGCUUGUU,-0.56
CCUGUGCUACACAUCGUAUGUACCGAAUCGGGCCCCCCCGGCCCCCCCGGGCCCCCCCGGGAAAGUAUUAUGUUACGCCGUUCGGAUCUG,-1.51
CACAGACAACACGCACCCACAGAGACACAGAGGGAAGGGGUUGGGAUGGGGACAGGGUGCACAGCAGGGCGGGGUAGGACCCCAGCCCCU,-0.151
CAAGUCCUGUGCUACACAUCGUAUGUACCGAAUCGGGAAAGGGUGGGUUUUUGGGAAAGUAUUAUGUUACGCCGUUCGGAUCUGCACUUC,1.52

# Set 3
# Target: RNA binding protein fox-1 homolog 2, RRM domain, GST-SBP tag (RBFOX2, Homo sapiens, UniProt O43251-10, residues 100-194)
# Method: RNA Bind-n-Seq
# Form: RNA
# Medium: in vitro
# Concentration: 365 nM
# Notes: natural RNA segment, single round, ends assumed
# Relative to: no-protein control
# Direction: higher = stronger binding
# Shared flanks, not repeated: GGGAGUUCUACAGUCCGACGAUC … UGGAAUUCUCGGGUGCCAA
# Construct (chain): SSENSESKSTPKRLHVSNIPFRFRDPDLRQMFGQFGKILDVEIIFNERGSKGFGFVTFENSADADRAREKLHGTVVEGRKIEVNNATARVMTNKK
Sequence,RBNS enrichment (R)
CUAAGACCAAGGACCUCUCAUGUGCAAGAUGGAGUAUUUGGUACCCAGUUAGAGCCCCUGGAAGUCCUCUUUCAGUUAGUGGCAAGCCACAUAUCCUGGAUCACAAAGCA,6.1
GUUUGCCUAGGUACAGAAUUAAUAGCCCUUAGCAACGACUGCUGCUGGUGUGUAUUUUUGUAAAUGUUAUGCACUCUGAAAGGAAAACACACAAAAGAAGAGAUUUUGUC,0.593
UAAUUAUUUGAUAACUCUUGUAAAUAGGUGGAAUAUGAAUGCUUGGAAAAUUAAACUUUAAUUUAUUGACAUUGUACAUAGCUCUGUGUAAAUAGAAUUGCAACUGUCAG,0.996
AAAAUAAAGUUGAGGCAGUUUUUGUGAAGAUAAUAUGGUUAGGGCUGGAGUGCACUAGUCUUUUUGCUUAUUCAUUUUGCAUGGUUUUAAAAUUAAAAAUAAUUCCGAAG,2.36
UAGGAGCCCCGCGGCCCAGCAGGUGCGGCGCGCACGGAGCGCCCCGGCCGGCGGCUUCUCCCGGAGGCCCCGGCGCCCGCACCCACCCGGCCCGGCCCCGAGAGCAGGCU,0.822
GUGUGAUAGAGCCUUUGAUCUUCAGGAUGCACGGUUUCUGUUCUGCCCCCUCAGGGAUGUGGGAAUCUCCCAGACUUGUUUCCUGUGCCCAUCAUCUCUGCCUUUGAGUG,0.278
ACUUCCUGUCCCACCGGCAUCUCACUUAAUUGAGCCUAAUGUCAGUAUCUGUGUGUGCCAAUGCUGUUACCACAUCCUGGUGAAGCUAAAAAAUAAAAUUUAAUUUGGAC,0.348
GACCCUCUUCCCUCCACUGAGUGCUGGACAUUCGGAACCCAAGUUCUUAUGGACCUACGGAGGAGAGAGAGAAAGCUUUAUGUAUGGGGGAAAAAAAGAUACUUUUUUAU,0.286
UUUUUAUAUAUACUUUUACCACUGUCACUGAAACAUCUGCCGAGAGCCAGCUAGGGCAGGAGUUGGGGAAAGACGCGCAGAAAGGCAAGCCCGAGUCAGGGCACUUGUUA,0.776
AAUAAUCCUAAAUUCUCUGGAAUAAAAAACUGAUUUCUUUGUUAAUUACUUGUACGAUGAAGGAUGCCUUUAAAAAAAAAUCAAAAUAAAUUAAACUGGUAAUGUUGAAU,0.603
UAAGAUAGUGUAACAUGCUUACAUUUCUUAUCCGACAUUAACAAAUAAAACGCUGUUUUCCUAUUAAUCUACUGUUCUUUUUAACCCUUUAAACCAGCAGGUCUCAGCCU,0.415
UUCUAACUGUCCGACAGGCUCCCAGUCUCUGUGUGUCCAGGCCAGAGGACCAGCACUCAGGAGAGUCUGCCUUUGGAUUGAGUUCCCAAAUUAGAGUCAUCGCACCAGGG,0.28

# Set 4
# Target: Prothrombin, mature alpha-thrombin (F2, Homo sapiens, UniProt P00734)
# Method: aptamer microarray, sandwich
# Form: DNA with 2'F-ANA
# Medium: in vitro
# Concentration: 200 nM
# Notes: whole 15-mer aptamer, many near background
# Together with: Cy3 exosite-II aptamer, 400 nM
# Direction: higher = stronger binding
# Sequence: GGTTGGTGTGGTTGG
Modification,mean fluorescence intensity [a.u.]
2'F-ANA at 3 4 5 7 8 9 10 11 12 14 15,51.1
2'F-ANA at 4 5 7 8 10 11 12 13 14,56
2'F-ANA at 3 4 8 10 11 12 14 15,176
2'F-ANA at 1 2 8 9 12 15,459
2'F-ANA at 1 2 3 4 5 6 10 13 14 15,45.9
2'F-ANA at 1 2 3 4 6 7 8 11 13 15,166
2'F-ANA at 2 5 6 7 8 10 13 14,54.8
2'F-ANA at 1 3 7 8 9 11 15,307
2'F-ANA at 1 2 5 6 10 12 13,55.6
2'F-ANA at 8 11 13 14 15,190
2'F-ANA at 1 2 3 4 8 9 11 12 14 15,75
2'F-ANA at 2 3 5 8 10 11 12 14 15,52.1
2'F-ANA at 4 7 12 15,620

# Set 5
# Target: Centromere-binding protein 1, full length, N-terminal tag (CBF1, Saccharomyces cerevisiae, UniProt P17106, residues 1-351)
# Sequence of UniProt P17106 (whole entry, looked up): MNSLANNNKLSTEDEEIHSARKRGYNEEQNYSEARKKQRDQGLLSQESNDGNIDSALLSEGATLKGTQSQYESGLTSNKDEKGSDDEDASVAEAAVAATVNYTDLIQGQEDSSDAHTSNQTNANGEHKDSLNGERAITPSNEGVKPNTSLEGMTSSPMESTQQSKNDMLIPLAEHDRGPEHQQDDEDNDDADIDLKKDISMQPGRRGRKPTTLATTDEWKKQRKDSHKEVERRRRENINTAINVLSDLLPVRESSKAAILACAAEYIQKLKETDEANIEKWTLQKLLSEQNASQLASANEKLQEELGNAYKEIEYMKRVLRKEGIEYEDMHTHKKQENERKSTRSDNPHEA
# Method: protein-binding microarray
# Form: double-stranded DNA, one strand shown
# Medium: in vitro
# Concentration: 0.8 µM
# Notes: whole 60-bp probe, no competitor
# Direction: higher = stronger binding
# Shared flanks, not repeated: … GTCTTGATTCGCTTGACGCTGCTG
Sequence,fluorescence intensity [a.u.]
GAATGTGCTGGCGACCACGGGGCTGACAGAGACTAG,638
GAACACGAGAATAATCACGAGAATAGAATGCACTAG,945
TGTACGAAGCTATATCAGGTGGCTATAGTAGTTAGG,737
CTAGAATTCGTAGGTGCAGGTGAGCATATTGCCTTC,543
CTACTTTTGCAGCGATTGGTGATGAAATGTTTCTTC,560
CTATTAGGTGTGGGTCACCTGAATTTATTATTCTTC,1180
CTACTACAGCTTCCATGTGAGCTTAAAACGATCTTC,666
CTATTAATAATCTACCACGTTTCAAATTCAATATTC,648
CTATGAGTACTTCCTCACCTGATCCAATCGATTTTC,903
CCTAACTACTATACATGCGTGGGATAGCTTCGTACA,532
GAACGAAATTTTCATCACGCTGTAGGACGCAAATAG,930
CTAAACTTGTACTTGCACATGTATCTTATTGTTTTC,716
GAATGTCACTATCATCACGCCCTAGAGCCAAGTTAG,588
CCTAACTACTATATGGTCAGGCAATAGCTTCGTACA,517
GAAAAACAGGGTATAGACGTGATGTCAGCTTAATAG,565
GAATATATATCAACTCACCTGGTATAGGGATCATAG,577
GAAACACATGAATGTGACGTTTCCTAAAAGAAGTAG,584
GAACGCAATTTTGGCTGCATCAGAATACATCGATAG,548
CTAATAAGGTGTCAGCATGTGGGGTGAGGATAATTC,573
TGTACGAAGCTATGTCACGTGGTTATAGTAGTTAGG,14600
CCTAACTACTATAGTCATCTGACATAGCTTCGTACA,1430
CCTAACTACTATAATCACGCTGCATAGCTTCGTACA,689
CTATACAAATAAATACACGAGCGATGTCGGACTTTC,537
TGTACGAAGCTATCGGTGGTGGTTATAGTAGTTAGG,510
TGTACGAAGCTATTCAACGTGAATATAGTAGTTAGG,567

# Single results of other studies
Molecule,target,test,system,setting,scale,endpoint,result
"PhoQ, residues 284 288 289 292 302 303 SLKLQV","PhoP, residues 12 14 15 18 19 NHTVL (Escherichia coli, UniProt P23836)","Sort-seq, measured: YFP reporter",E. coli,"PhoQ-PhoP variant library, together with: 10 µM Mg2+","relative to: high Mg2+ state, higher = stronger signaling",fold induction,10.8

# Excerpt of the above (set 3):
Sequence,RBNS enrichment (R)
CUAAGACCAAGGACCUCUCAUGUGCAAGAUGGAGUAUUUGGUACCCAGUUAGAGCCCCUGGAAGUCCUCUUUCAGUUAGUGGCAAGCCACAUAUCCUGGAUCACAAAGCA,6.1
GUUUGCCUAGGUACAGAAUUAAUAGCCCUUAGCAACGACUGCUGCUGGUGUGUAUUUUUGUAAAUGUUAUGCACUCUGAAAGGAAAACACACAAAAGAAGAGAUUUUGUC,0.593
UAAUUAUUUGAUAACUCUUGUAAAUAGGUGGAAUAUGAAUGCUUGGAAAAUUAAACUUUAAUUUAUUGACAUUGUACAUAGCUCUGUGUAAAUAGAAUUGCAACUGUCAG,0.996
AAAAUAAAGUUGAGGCAGUUUUUGUGAAGAUAAUAUGGUUAGGGCUGGAGUGCACUAGUCUUUUUGCUUAUUCAUUUUGCAUGGUUUUAAAAUUAAAAAUAAUUCCGAAG,2.36
UAGGAGCCCCGCGGCCCAGCAGGUGCGGCGCGCACGGAGCGCCCCGGCCGGCGGCUUCUCCCGGAGGCCCCGGCGCCCGCACCCACCCGGCCCGGCCCCGAGAGCAGGCU,0.822
GUGUGAUAGAGCCUUUGAUCUUCAGGAUGCACGGUUUCUGUUCUGCCCCCUCAGGGAUGUGGGAAUCUCCCAGACUUGUUUCCUGUGCCCAUCAUCUCUGCCUUUGAGUG,0.278
ACUUCCUGUCCCACCGGCAUCUCACUUAAUUGAGCCUAAUGUCAGUAUCUGUGUGUGCCAAUGCUGUUACCACAUCCUGGUGAAGCUAAAAAAUAAAAUUUAAUUUGGAC,0.348
GACCCUCUUCCCUCCACUGAGUGCUGGACAUUCGGAACCCAAGUUCUUAUGGACCUACGGAGGAGAGAGAGAAAGCUUUAUGUAUGGGGGAAAAAAAGAUACUUUUUUAU,0.286
UUUUUAUAUAUACUUUUACCACUGUCACUGAAACAUCUGCCGAGAGCCAGCUAGGGCAGGAGUUGGGGAAAGACGCGCAGAAAGGCAAGCCCGAGUCAGGGCACUUGUUA,0.776
AAUAAUCCUAAAUUCUCUGGAAUAAAAAACUGAUUUCUUUGUUAAUUACUUGUACGAUGAAGGAUGCCUUUAAAAAAAAAUCAAAAUAAAUUAAACUGGUAAUGUUGAAU,0.603
UAAGAUAGUGUAACAUGCUUACAUUUCUUAUCCGACAUUAACAAAUAAAACGCUGUUUUCCUAUUAAUCUACUGUUCUUUUUAACCCUUUAAACCAGCAGGUCUCAGCCU,0.415
UUCUAACUGUCCGACAGGCUCCCAGUCUCUGUGUGUCCAGGCCAGAGGACCAGCACUCAGGAGAGUCUGCCUUUGGAUUGAGUUCCCAAAUUAGAGUCAUCGCACCAGGG,0.28
